Published values from different studies.
± gives the spread as reported. Converted amounts (≈) assume the structure as drawn.

Cc1ccc2nc(C)c(C(=O)NCc3ccc(C(F)(F)F)cc3)n2c1
intrinsic clearance (mouse liver microsomes): 92 ml/min/g protein

CN[C@@H]1[C@H](O)[C@H](NC)[C@H]2O[C@]3(O)[C@H](O[C@@H]2[C@H]1O)O[C@H](C)C[C@H]3NC(=O)Cc1ccc(F)cn1
fraction unbound (rat plasma): 0.723

N[C@]1(c2ccccc2Cl)CCC[C@H](O)C1=O
oral bioavailability (Wistar rat; 20 mg/kg, with: intravenous 20 mg/kg; relative to: intravenous dose): 46.3%

CC1=C[C@H]2c3c(O)cc(CCc4ccccc4)cc3OC(C)(C)[C@H]2CC1
plasma concentration (LC-MS/MS; male BALB/c mouse, plasma; intraperitoneal, 50 mg/kg, 1 h, with: Δ9-trans-THC 10 mg/kg and trans-PET 40 mg/kg): 1790 nM

COc1ccc(CCNc2cc(-c3ccccc3)nc3ncnn23)cc1
kinetic solubility (CLND; phosphate-buffered saline; 1 (unit not given), pH 7.4): 14 µM (≈ 4.84 µg/mL)

CN[C@@H]1[C@H](O)[C@H](NC)[C@H]2O[C@]3(O)[C@H](O[C@@H]2[C@H]1O)O[C@H](C)C[C@H]3NC(=O)Cc1cscn1
fraction unbound (rat plasma): 0.869

Cc1cccc(-c2nc(Nc3ccncn3)c3c(C)csc3n2)n1
intrinsic clearance (mouse liver microsomes): 20.8 mL/min/g

N=C(N)NCCCCCCN1CCC23c4c5ccc(O)c4OC2c2nc4ccccc4cc2CC3(O)C1C5 (stereo not shown)
half-life (metabolic stability; human, liver microsomes; 1 µM, pH 7.4): > 2 h

COc1ccc2nc(C)cc(OCC(=O)Nc3ccccc3OC)c2c1
kinetic solubility (CLND; phosphate-buffered saline; 1 (unit not given), pH 7.4): 38 µM (≈ 13.4 µg/mL)

COc1ccc(-n2cc(C(=O)N3C[C@]4(OC(=O)c5ccccc5NC(C)=O)CC[C@H](OC)[C@@]56[C@@H]4C[C@@H]([C@@H]35)[C@@]3(O)C[C@H](OC)[C@H]4C[C@@H]6[C@]3(O)[C@H]4OC)nn2)cc1
elimination rate constant (Sprague-Dawley rat, plasma; intravenous, 2 mg/kg): 0.000639 ± 0.000378 s⁻¹

A few entries again:
Cc1ccc2nc(C)c(C(=O)NCc3ccc(C(F)(F)F)cc3)n2c1
intrinsic clearance (mouse liver microsomes): 92 ml/min/g protein
